Measurements gathered from unrelated publications.
Each line is one published result; not all experiments were run side by side. ± marks the error that the study gave.
CYP2B6: Cytochrome P450 2B6 (CYP2B6, Homo sapiens, UniProt P20813)

SMILES	tested on	assay	test system	conditions	scale	endpoint	result
CCCCCn1cc(C(=O)c2ccc3c(c2)CC(C)(C)C3)c2ccccc21	Cannabinoid receptor 2 (CNR2, Homo sapiens, UniProt P34972)	β-arrestin recruitment, agonist, BRET	–	–	–	EC50	0.513 µM
NCCCC[C@H](NC(=O)CNC(=O)CNC(=O)[C@H](CCCCN)NC(=O)CNC(=O)CNC(=O)CNC(=O)[C@H](CCCCN)NC(=O)CNC(=O)CNC(=O)[C@H](CCCCN)NC(=O)CNC(=O)CNC(=O)CNC(=O)[C@H](CCCCN)NC(=O)CNC(=O)CNC(=O)[C@H](CCCCN)NC(=O)CNC(=O)CNC(=O)CNC(=O)[C@H](CCCCN)NC(=O)CNC(=O)CNC(=O)[C@H](CCCCN)NC(=O)[C@H](CO)NC(=O)[C@H](Cc1ccc(O)cc1)NC(=O)CNC(=O)CNC(=O)CN)C(=O)NCC(=O)O	–	binding, SPR two-state model	rVλ6Wil fibrils	300 nM	–	kd1	0.001 s⁻¹
CC(C)C[C@H](NC(=O)[C@H](Cc1ccccc1)NC(=O)CNC(=O)CNC(=O)[C@@H](N)Cc1ccc(OC(C(=O)O)c2ccccc2[N+](=O)[O-])cc1)C(=O)O (stereo partly shown)	–	K+ current, agonist, photo-uncaging	rat locus coeruleus neurons	–	baseline: uncaging over local perfusion	deactivation speed ratio	~2 fold
C[C@H](NC(=O)[C@H](CCC(N)=O)NC(=O)[C@H](CCCCN)NC(=O)[C@H](C)NC(=O)[C@@H]1CCCN1C(=O)[C@H](C)NC(=O)[C@H](CCCCN)NC(=O)[C@H](CCC(N)=O)NC(=O)[C@H](C)NC(=O)[C@H](CCCCN)NC(=O)[C@H](CCC(N)=O)NC(=O)[C@@H]1CCCN1C(=O)[C@H](CCC(N)=O)NC(=O)[C@H](CCCCN)NC(=O)[C@H](C)NC(=O)[C@H](CCC(N)=O)NC(=O)[C@H](CCCCN)NC(=O)[C@H](C)NC(=O)[C@@H]1CCCN1C(=O)[C@H](C)NC(=O)[C@H](CCCCN)NC(=O)[C@H](CCC(N)=O)NC(=O)[C@H](C)NC(=O)[C@H](CCCCN)NC(=O)[C@H](CO)NC(=O)[C@H](Cc1ccc(O)cc1)NC(=O)CNC(=O)CNC(=O)CN)C(=O)N[C@@H](CCCCN)C(=O)N[C@@H](CCC(N)=O)C(=O)O	–	binding, SPR two-state model	rVλ6Wil fibrils	300 nM	–	kd1	0.045 s⁻¹
O=P(O)(O)Oc1ccc(Oc2ccc(S(=O)(=O)CC3CS3)cc2)cc1 (racemic)	72 kDa type IV collagenase (MMP2, Homo sapiens, UniProt P08253)	enzyme activity, inhibitor	–	–	–	Ki	11.7 µM
CC(C)C[C@H](NC(=O)[C@H](CO)NC(=O)CNC(=O)[C@@H](N)CO)C(=O)N[C@@H](CO)C(=O)N[C@H](C(=O)N[C@@H](Cc1ccccc1)C(=O)N[C@@H](Cc1ccccc1)C(=O)N[C@@H](CCCNC(=N)N)C(=O)N[C@@H](CC(C)C)C(=O)N[C@@H](Cc1ccccc1)C(=O)N[C@@H](CC(N)=O)C(=O)N[C@@H](CCCNC(=N)N)C(=O)N[C@@H](CO)C(=O)N[C@@H](Cc1ccccc1)C(=O)N[C@H](C(=O)N[C@@H](CCC(N)=O)C(=O)N[C@@H](C)C(=O)O)[C@@H](C)O)[C@@H](C)O	uncharacterized protein (Streptococcus mutans serotype c, UniProt Q8DS94)	–	Streptococcus mutans	–	–	EC50	0.0062 µM
CC(C)C[C@@H](CC(=O)NCc1cccc(Oc2ccccc2)c1)NC(=O)[C@H](CCCNC(=N)N)NC(=O)[C@@H](N)CCCNC(=N)N	Cyclin-A2, with CDK2 (CCNA2, Homo sapiens, UniProt P20248)	kinase activity, inhibitor	–	with: GST-Rb substrate	–	IC50	> 100 µM
CCCCCc1cc(O)c2c(c1)OC(C)(C)C1CCC(CO)=CC21 (stereo not shown)	CYP2B6	enzyme activity, inhibitor	microsomes from HEK293 cells	pH 7.4, with: bupropion	–	IC50	7.1 ± 3.3 µM
CC[C@H](C)[C@H](N)C(=O)N[C@H](C(=O)N[C@@H](CO)C(=O)N[C@H](C(=O)N[C@H](C(=O)NCC(=O)N[C@@H](CC(=O)O)C(=O)N[C@@H](Cc1c[nH]c2ccccc12)C(=O)N[C@H](C(=O)N[C@@H](CCCCN)C(=O)N[C@@H](CC(C)C)C(=O)N[C@H](C(=O)N[C@H](C(=O)N[C@@H](CC(=O)O)C(=O)N[C@H](C(=O)N[C@H](C(=O)N[C@@H](CC(N)=O)C(=O)N[C@@H](CCCCN)C(=O)N[C@@H](Cc1ccccc1)C(=O)N[C@H](C(=O)N[C@@H](CCCCN)C(=O)N[C@@H](CCCCN)C(=O)O)[C@@H](C)O)C(C)C)[C@@H](C)O)[C@@H](C)CC)[C@@H](C)CC)C(C)C)[C@@H](C)CC)[C@@H](C)O)[C@@H](C)CC	–	lipid vesicle binding	POPC vesicles	pH 7.5	–	Kd	190 µM
CCCCCc1cc(O)c2c(c1)OC(C)(C)C1CCC(C)=CC21 (single isomer, unassigned; (-))	CYP2B6	enzyme activity, inhibitor	human, liver microsomes	pH 7.4	–	IC50	19 µM
C[C@H](NC(=O)[C@H](CCC(N)=O)NC(=O)[C@H](C)NC(=O)[C@H](CCCCN)NC(=O)[C@H](CCC(N)=O)NC(=O)[C@H](C)NC(=O)[C@H](CCCCN)NC(=O)[C@H](CCC(N)=O)NC(=O)[C@H](C)NC(=O)[C@H](CCC(N)=O)NC(=O)[C@H](CCCCN)NC(=O)[C@H](C)NC(=O)[C@H](CCC(N)=O)NC(=O)[C@H](CCCCN)NC(=O)[C@H](C)NC(=O)[C@H](CCC(N)=O)NC(=O)[C@H](C)NC(=O)[C@H](CCCCN)NC(=O)[C@H](CCC(N)=O)NC(=O)[C@H](C)NC(=O)[C@H](CCCCN)NC(=O)[C@H](CO)NC(=O)[C@H](Cc1ccc(O)cc1)NC(=O)CNC(=O)CNC(=O)CN)C(=O)N[C@@H](CCCCN)C(=O)N[C@@H](CCC(N)=O)C(=O)N[C@@H](C)C(=O)N[C@@H](CCCCN)C(=O)N[C@@H](CCC(N)=O)C(=O)O	–	binding, SPR Langmuir fit	rVλ6Wil fibrils	300 nM, pH 7.4	–	dissociation rate constant	0.00044 s⁻¹
CC(C)[C@H](NC(=O)[C@H](CCCNC(=N)N)NC(=O)[C@@H](NC(=O)[C@H](CCC(N)=O)NC(=O)[C@H](CCC(N)=O)NC(=O)[C@@H](NC(=O)[C@H](Cc1c[nH]c2ccc(O)cc12)NC(=O)[C@@H]1CCCN1C(=O)[C@@H]1CCCN1C(=O)[C@H](Cc1ccccc1)NC(=O)[C@H](CO)NC(=O)CNC(=O)[C@H](CCCNC(=N)N)NC(=O)[C@H](CCCNC(=N)N)NC(=O)[C@H](CCCNC(=N)N)NC(=O)[C@H](CCCNC(=N)N)NC(=O)[C@H](CCCNC(=N)N)NC(=O)[C@@H](N)CCCNC(=N)N)C(C)C)[C@@H](C)O)C(=O)O	Disks large homolog 4, PDZ3 domain (Homo sapiens, UniProt P78352)	binding, SPR	–	pH 7.5, 25 °C	–	Kd	0.446 µM
CCC[C@@H](C(=O)c1ccccc1)N1CCCC1	Sodium-dependent dopamine transporter (SLC6A3, Homo sapiens, UniProt Q01959)	transporter uptake, inhibitor, radiometric	–	–	–	Ki	0.01 µM
